Values quoted from earlier work, collected from citations in different studies.
Protocols differ between the studies behind these lines. Numbers after ± are the reported error. No end group written: not given here.
CD274: Programmed cell death 1 ligand 1 (CD274, Homo sapiens, UniProt Q9NZQ7)
B1: side-chain stapled; chain WWTNDFCACA (also: sidechain bridge or staple (positions not given here))

The MIC of `IFFRRNKKMAVKVAINGFGRIGRLAFRQMFGRYIAKINPDNKKFKTMPSG` is reported as 9 µM (Staphylococcus aureus; peptide, ATCC 6538).
With `TNSKQGETTV` the Kd was 15.8 µM (CHAPSYN-110 PDZ domain 3; binding, fluorescence polarization; peptide).
`KRRWKKNFIAVSAANRFKKISSS` gave a Kd of 0.02 ± 0.01 µM (calmodulin EF3/EF4 domain; binding; peptide; pH 7.4).
With `SPDRDRESIV` the Kd was 16.2 µM (CHAPSYN-110 PDZ domains 2/3; binding, fluorescence polarization; peptide).
`SETSKSF` has a Kd of 0.0825 µM (CD274; peptide).
`DRDRPECSTMVKYEQKLPSLGKYALKRAIKIKFGRK` gave an MIC of 7 µM (Staphylococcus aureus; peptide, ATCC 6538).
The Kd of `PCNA-associated factor p15` is reported as 1.1 µM (PCNA; binding).
`RRISSLESEV` has a Kd of 2.26 µM (CHAPSYN-110 PDZ domains 2/3; binding, fluorescence polarization; peptide).
`teicoplanin` — result for “volume of distribution steady-state”: 0.56 L/kg (healthy human subjects; dose not given).
With `MTPSTPPRSRG` the Kd was 4 µM (Cdc4; binding; peptide).
For `pegcetacoplan`, “serum level increase” read roughly 100% (Complement C3 (Homo sapiens, UniProt P01024); human subjects; subcutaneous, 1440 mg single dose; reference: placebo).
`FCDGFYA / CYMDV (disulfide)` gave a Kd of 0.3 µM (p185HER2/neu (HER2); binding; peptide).
For `α-synuclein`, the Kd was roughly 10 µM (Hsp70; monomers).
The Kd of `CCL3` is reported as 0.0013 µM (US28 wild type; binding, radioligand competition).
The Kd of `ZGPWLEEEEEAYGWMDFG` is reported as 0.62 ± 0.19 µM (ferric ion; binding, fluorescence spectroscopy; peptide, aqueous solution; pH 4.0, two ferric ions bound).
The Kd of `HTHSYIETHV` is reported as 4.12 µM (CHAPSYN-110 PDZ domains 2/3; binding, fluorescence polarization; peptide).
For `B1`, the Kd was 0.164 µM (streptavidin; binding, HABA competition).
The Kd of `NTANRRTTPV` is reported as 20 µM (CHAPSYN-110 PDZ domains 2/3; binding, fluorescence polarization; peptide).
With `CVRARTR` the Kd was 0.281 µM (CD274; peptide).

For quick reference, copied from above:
With `CVRARTR` the Kd was 0.281 µM (CD274; peptide).
With `TNSKQGETTV` the Kd was 15.8 µM (CHAPSYN-110 PDZ domain 3; binding, fluorescence polarization; peptide).
